Results of several laboratories.
Lines come from different studies, so protocols differ. Several values in a cell are separate wells, animals, samples, runs or records.
Target: Protein kinase C iota type (PRKCI, Homo sapiens, UniProt P41743)

assay	conditions	scale	measurement	result	SMILES
kinase activity, inhibitor, ProQinase kinase profiling	25 µM	baseline: control	remaining activity	90% and 104%	COCC12C(=O)NC3C4(C(OC)CC1O)C1CC5(O)C(OC)C(O)C(OC(C)=O)(C1C5OC(=O)c1ccccc1)C3(O)C(OC)C24 (stereo not drawn)
kinase activity	0.1 µM, with: ATP at Km	–	inhibition	-2.1%	CCn1cc(C(=O)O)c(=O)c2c(N)c(F)c(NC3CCCCC3)cc21
enzyme activity, inhibitor	10 µM	–	inhibition	5%	NC(=O)[C@@H](O)C[C@H]1CCc2sc3ncnc(O[C@H]4CC[C@H](N5CCOCC5)CC4)c3c21
enzyme activity, inhibitor	0.1 µM	–	inhibition	-6%	CN1CCN(Cc2ccc(-c3ccc(CO[C@H]4CCC[C@@H]4NC(=O)c4cc(-c5cnn(C)c5)cnc4N)cc3)cc2)CC1
kinase activity	0.1 µM	–	inhibition	7% and -4%	C=CC(=O)Nc1cccc(-c2cnc3[nH]cc(C(=O)NC(C)(C)C)c3n2)c1
binding	0.1 µM	–	remaining binding	93%	Cc1cnc2nc1Nc1cccc(c1)COC/C=C/COCc1cc(ccc1OCCN1CCOCC1)N2
enzyme activity	100 nM, human enzyme, with: 10 µM ATP	baseline: untreated	remaining activity	88%	O=C=[N][Ru-4]123([n]4c5ccc(O)cc5c5c6c(c7cc(F)c[n+]1c7c54)C(=O)NC6=O)[S+]1CC[S+]2CC[S+]3CC1 (stereo not drawn)
cell-free assay, competition with immobilised ligand	10 µM	–	remaining binding	76%	CC(C)=CC1OC(C)(C)C2C=C3C(=O)C(Cl)=CC(O)C3C3C(O)C4OC4C(=O)C132 (stereo not drawn)
enzyme activity	10 µM	–	inhibition	-4%	Cc1cccc(O[C@H]2CCC[C@@H](C(C)CNCc3ccncc3)C2)c1 (relative stereo)
binding, competition with immobilised ligand	1 µM	–	remaining binding	98%	COc1cc(Nc2nccc(-c3cnn4nc(OC)ccc34)n2)cc(C(F)(F)F)c1
cell-free assay, competition with immobilised ligand	1 µM	–	remaining binding	92%	C=CC(=O)N1CCCC(n2c(=O)c3ncccc3n(Cc3ccc(Oc4ccccc4)cc3)c2=O)C1 (stereo not drawn)
enzyme activity, inhibitor	1 µM	–	activity vs control	96%	CNC(=O)C[C@H](Cc1ccc(C#N)cc1)NC(=O)c1cc(-c2ccc(CN[C@H](C)c3ccc(C)cc3)o2)ccc1Cl
cell-free assay, competition with immobilised ligand	3 µM	–	remaining binding	68%	COc1c(Cl)cccc1Nc1c(-c2ccncc2C#C[C@@]2(C)CCCN2C(=O)/C=C/CN(C)C)[nH]c2c1C(=O)NCC2
cell-free assay	1 µM	–	inhibition	2.1%	C=CC(=O)N1Cc2nc(-c3cc(-c4cc(Cl)cnc4Cl)c(F)cc3F)n(-c3ccncn3)c2C1
enzyme activity, inhibitor	10 µM	–	activity vs control	122%	O=C(Cc1ccc(OCc2ccccc2)cc1)NC1(C(=O)O)CCN(C(=O)c2ccc(-c3cccc(Cl)c3)cc2)CC1

Excerpt of the above:
assay	conditions	scale	measurement	result	SMILES
kinase activity, inhibitor, ProQinase kinase profiling	25 µM	baseline: control	remaining activity	90% and 104%	COCC12C(=O)NC3C4(C(OC)CC1O)C1CC5(O)C(OC)C(O)C(OC(C)=O)(C1C5OC(=O)c1ccccc1)C3(O)C(OC)C24 (stereo not drawn)
kinase activity	0.1 µM, with: ATP at Km	–	inhibition	-2.1%	CCn1cc(C(=O)O)c(=O)c2c(N)c(F)c(NC3CCCCC3)cc21
